# Measured values from different studies.
# Numbered parts are unrelated; each lists some results of a single study. Changes are numbered by the printed parent chain.

# Set 1 — technique: EMSA with sequencing; form: double-stranded DNA, one strand shown; medium: in vitro; tested at: 10 and 20 nM; relative to: negative control set to 0; reading: higher = stronger binding
# Target: Hepatocyte nuclear factor 3-alpha (Foxa1, Mus musculus, UniProt P35582, residues 1-468, full length assumed)
# UniProt P35582, sequence (whole entry, looked up): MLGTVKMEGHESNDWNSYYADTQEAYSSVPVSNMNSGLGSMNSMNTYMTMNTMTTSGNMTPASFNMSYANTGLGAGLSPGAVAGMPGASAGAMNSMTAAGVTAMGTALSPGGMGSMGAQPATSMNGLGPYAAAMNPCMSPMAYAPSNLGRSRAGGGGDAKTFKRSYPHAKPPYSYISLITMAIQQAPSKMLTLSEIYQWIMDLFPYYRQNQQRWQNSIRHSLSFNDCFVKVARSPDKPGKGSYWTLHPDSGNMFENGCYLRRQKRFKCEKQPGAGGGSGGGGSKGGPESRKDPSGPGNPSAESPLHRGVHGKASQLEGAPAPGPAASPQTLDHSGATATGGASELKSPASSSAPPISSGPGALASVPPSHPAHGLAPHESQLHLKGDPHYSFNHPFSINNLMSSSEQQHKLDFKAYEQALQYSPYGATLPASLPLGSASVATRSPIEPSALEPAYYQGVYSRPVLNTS
# Notes: whole designed probe, mean of two concentrations, ends assumed
Oligonucleotide,normalised bound fraction [ratio]
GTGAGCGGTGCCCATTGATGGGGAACCCTTTGGGTTATTCACCTAGATCCCTTAAGGTTTAAAATCAATTCTACAGGGACTTTTGAACTTAGACTTTCACTCCATATGTTAGGACTTATAAATTACATTATAGTTTGCTGTTAACTTAGCTGTTTATGTAGGTGTTCAAAGCTACATGAACGGCGAACTATAAGGTAATTTAGAAGCTTTCCCAAGACATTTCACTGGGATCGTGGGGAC,-0.0016
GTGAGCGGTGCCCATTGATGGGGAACGTGGAAGAAGCAAATTATTTTTGTGTTAAAATGGATATTATCAACTGCAAAGAAAAAGGTGAATATTTCACAAGTGAGCCAGAACATTTACAGTGTAATCTAGAGCAGTTGCTACCTTTGCTTTTTTTTTCCCACTTCTTCAATATGATCACCATGCTTTTCATTACCCTGCTACTCAGTATTTCTAGTCAACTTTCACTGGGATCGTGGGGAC,-0.0545
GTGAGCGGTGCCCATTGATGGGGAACATTACCTATCTTCATTGCAGTTTTCTATGGCTGTATAAATGGAGTACTCTCTTGACACAGGAAGGATGATAATACATTTTTGCTTATTTACTTGTTTACTTTTTCTTTTAATAGGATTGTGCATATGCTAAATGAAGTCCTTAGTAGTATTCAGAAAATCTGCCATCTTCTTTTGATTCACAGGATGCTTTTATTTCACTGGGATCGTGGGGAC,0.399
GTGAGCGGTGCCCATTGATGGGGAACATCTTCCCCCTCTTCCTTGCCCCACCAGTTCACCTTCCCGGGTATATTGGAGATAGGAAATTAATATAAGCCGGCATTCGTTAACCCTCTTCTGGCGCAAACTGCACATTGGTCTGGATGAATCATGGTCCTTTGGCGACGCCAGGCTCCGGGAGAGCAAAGCACCGTGTCAGGGCCATGATCCGGGGTGGCCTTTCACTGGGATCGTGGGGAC,0.0136
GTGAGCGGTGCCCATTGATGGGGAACATCTTCCCCCTCTTCCTTGCCCCACCAGCTCACCTTCCCGGGTTGTTTACTTTGAGCAAAGTAAACAAAGCCGGCATTCGTTAACCCTCTTCACGCGCATACTGCTGTTTGCTCTGGATCTAACATGGTCCTTTGGCGACGCCAGGCTCCGGGAGAGCAAAGCACCGTGTCAGGGCCATGATCCGGGGTGGCCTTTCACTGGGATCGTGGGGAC,0.535
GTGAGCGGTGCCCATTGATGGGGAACAGACACCATTTCGAACAAAACAAAACAGTTGCTCCCTTCCCTCTTGTTCCTCCCACTATTGCTGTCATTGCAAGCTCCTAGGAGCTGCCCTGTTATTTACATTGCAGTGGGCATGACTCAGGGAAGCAGCAGGCAGGGAGGAGGATGGGAAGCAAGAACCCAGCTGGGGCTAAGCAAGGTCCAGCTCATAATATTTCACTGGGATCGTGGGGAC,0.403
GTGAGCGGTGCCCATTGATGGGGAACATCTTCCCCCTCTTCCTTGCCCCACCAGCTCACCTTCCCGGGTTGTTTACTTTGAGTATTTATTTTCAAGCCGGCATTCGTTAACCCTCTTCTGGCGCAAACTGCCAGAGCAAACAGATGAATCATGGTCCTTTGGCGACGCCAGGCTCCGGGAGAGCAAAGCACCGTGTCAGGGCCATGATCCGGGGTGGCCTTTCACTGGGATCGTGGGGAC,0.377
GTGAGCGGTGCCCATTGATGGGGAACATCTTCCCCCTCTTCCTTGCCCCACCAGCTCACCTTCCCGGGTTATTTGCAGATAGGAAAATAAATAAAGCCGGCATTCGTTAACCCTCTTCTGGCGCAAACTGCTGTTTACTTTGGATCTAACATGGTCCTTTGGCGACGCCAGGCTCCGGGAGAGCAAAGCACCGTGTCAGGGCCATGATCCGGGGTGGCCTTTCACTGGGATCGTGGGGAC,0.427

# Set 2 — target: UBE2B UBC core domain (UniProt P63146); technique: yeast two-hybrid; medium: yeast; notes: mostly zero background; relative to: not given; reading: higher = stronger interaction
# UniProt P63146, sequence (whole entry, looked up): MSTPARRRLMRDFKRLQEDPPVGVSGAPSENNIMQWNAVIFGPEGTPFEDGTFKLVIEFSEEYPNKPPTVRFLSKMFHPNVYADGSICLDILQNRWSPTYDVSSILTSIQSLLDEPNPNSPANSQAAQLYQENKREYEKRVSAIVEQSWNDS
# B1: DZIP3 RING domain (UniProt Q86Y13); chain PDEEEEEEEPCVICHENLSPENLSVLPCAHKFHAQCIRPWLMQQGTCPTCRLHVLLPEEFP
# B2: RNF133 RING domain (UniProt Q8WVZ7); chain DEEINPNGDSCVICFERYKPNDIVRILTCKHFFHKNCIDPWILPHGTCPICKCDILKVLGIQ
# B3: RFWD3 RING domain (UniProt Q6PCD5); chain ASMDEEEGDTCTICLEQWTNAGDHRLSALRCGHLFGYRCISTWLKGQVRKCPQCNKKARHSDIVV
# B4: RNF19A RING domain (UniProt Q9NV58); chain ISKQIGDFIECPLCLLRHSKDRFPDIMTCHHRSCVDCLRQYLRIEISESRVNISCPECTERFNPHDIR
# B5: RBCK1 RING domain (UniProt Q9BYM8); chain SLVLNTEPAECPVCYSVLAPGEAVVLRECLHTFCRECLQGTIRNSQEAEVSCPFIDNTYSCSGKLLEREIK
Sequence,lacZ reporter activity
B1 (DZIP3 RING domain),0
FDGDVDPDLKCALCHKVLEDPLTTPCGHVFCAGCVLPWVVQEGSCPARCRGRLSAKELN (PDZRN3 RING domain (UniProt Q9UPQ7)),0
AVPSGLEENLCKICMDSPIDCVLLECGHMVTCTKCGKRMNECPICRQYVIRAVHVF (RFFL RING domain (UniProt Q8WZ73)),0
B2 (RNF133 RING domain),0
B3 (RFWD3 RING domain),0
B4 (RNF19A RING domain),0
B5 (RBCK1 RING domain),0
GSDDEEIPFKCFICRQSFQNPVVTKCRHYFCESCALQHFRTTPRCYVCDQQTNGVFNPA (RNF113A RING domain (UniProt O15541)),0
KETIKKTTKPCPRCHVPVEKNGGCMHMKCPQPQCRLEWCWNCGCEWNRVCMG (PRKN RING domain (UniProt O60260)),0
NLSELTPYILCSICKGYLIDATTITECLHTFCKSCIVRHFYYSNRCPKCNIVVHQTQPLY (PCGF6 RING domain (UniProt Q9BYE7)),0
KLRKLKEAMLCMVCCEEEINSTFCPCGHTVCCESCAAQLQSCPVCRSRVEHVQHVY (MYLIP RING domain (UniProt Q8WY64)),0

# Set 3 — target: DDIT3, bZIP domain (human); technique: DHFR protein complementation; medium: yeast; relative to: wild-type JUN-FOS pair; reading: higher = stronger binding
# Notes: single substitutions, most at no-binding floor
# Starting sequence: JUN, bZIP domain (human); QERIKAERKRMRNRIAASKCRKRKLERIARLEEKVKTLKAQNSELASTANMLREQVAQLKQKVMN; partner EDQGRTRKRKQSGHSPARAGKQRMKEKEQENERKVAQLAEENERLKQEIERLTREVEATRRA
Substitution,binding fitness
L52W,-1.11 natural log
E33W,-0.191 natural log
S47H,0.0966 natural log
L31S,-0.521 natural log
V56I,0.221 natural log
L59R,-0.547 natural log
L38D,-1.14 natural log
R53I,-0.606 natural log
R53N,-0.63 natural log
E54M,-0.0414 natural log
L38W,-1.1 natural log
L45C,-1.21 natural log
V56H,-0.351 natural log
A29S,-0.0693 natural log
M51V,-0.0644 natural log
I28F,-0.122 natural log
E33I,-0.368 natural log
A49S,-0.744 natural log
I28D,-0.253 natural log

# Set 4 — technique: protein-binding microarray; form: double-stranded DNA, one strand shown; medium: in vitro; tested at: not given; reading: higher = stronger binding
# Target: Protein max, full length (MAX, Homo sapiens, UniProt P61244-2, residues 1-151)
# Notes: k-mer, scored over probes, only values ≥0.25
Oligonucleotide,E-score
GAGCACAC,0.348
CATGAATA,0.267
CGTGCAGC,0.391
AAGCACGC,0.421
ACGCGTGG,0.46
AGTCACAC,0.333
GGCATGTA,0.26
ACATGCGG,0.454
AGACACGC,0.404
CATGTTAG,0.332
CCCGCCCC,0.313
CACGTCAC,0.258
CCCGTCCC,0.26
CATGTCAG,0.299
GGCATGCA,0.39
AGCACAAG,0.279
CATGAGAC,0.292
CCAGGTGA,0.27
CTCGTGTA,0.435
CGCCCACA,0.277
ACGTGATA,0.464
ACATGGTG,0.363

# Set 5 — target: CCNF, cyclin fold, Cln2 fusion (human); technique: yeast growth competition, sequencing; medium: yeast; notes: weak parent motif; relative to: not given; reading: higher = stronger binding
# Starting sequence: DBF4 docking peptide (human); DDIVSKLVFDFVE
Substitution,normalised enrichment score
DDIVSKLVADFVE [F9A],-0.78
DDIASKLVFDFVE [V4A],0.0593
DDIVSKLVFAFVE [D10A],-0.112
DDAVSKLVFDFVE [I3A],0.115
DDIVAKLVFDFVE [S5A],-0.0381
DDIVSKAVFDFVE [L7A],-0.687
DDIVSKLVFDFAE [V12A],-0.299

# Set 6 — technique: DHFR PCA, deep sequencing; medium: yeast; together with: (+)-ABA 200 µM; relative to: wild-type fitted maximum; reading: higher = stronger binding
# Target: ABI1, truncated, D143A, DHFR fusion (Arabidopsis thaliana)
# Notes: methotrexate growth selection, single substitutions
# Starting sequence: PYL1, truncated, DHFR fusion (Arabidopsis thaliana); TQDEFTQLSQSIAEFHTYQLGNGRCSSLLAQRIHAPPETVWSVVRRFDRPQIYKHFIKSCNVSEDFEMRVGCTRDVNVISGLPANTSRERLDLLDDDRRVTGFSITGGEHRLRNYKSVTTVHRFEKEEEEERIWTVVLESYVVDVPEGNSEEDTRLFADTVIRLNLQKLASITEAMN
Substitution,relative binding score
H110R,-1.89%
T106H,83.6%
I57Y,42.2%
D153A,49.1%
R98F,83.3%
Q167V,88.8%
L164F,95.4%
T173E,8.36%
S27R,81.8%
V136F,90.5%
D97M,100%
E152I,90.7%
R88Y,99.6%
N22M,97.8%
D96H,74%
Y141F,82%
A158G,67.1%
Q51D,89.8%
L29V,101%
R163M,76.7%

# For quick reference, copied from above (set 4):
Oligonucleotide,E-score
CGTGCAGC,0.391
AAGCACGC,0.421
ACGCGTGG,0.46
AGTCACAC,0.333
GGCATGTA,0.26
